Measured values gathered from unrelated publications.
Compare with care: the assays were run in different laboratories. Numbers after ± are the reported error.

CCc1ccc(CC/C=C/c2ccc3c(c2)C(=O)CC3)cc1
Mononuclear percentage (Sprague-Dawley rat, male; oral, 30 mg/kg/day, 14 days): 2.43%

O=[Se](=O)([O-])[O-].[Na+].[Na+]
apparent clearance (CL/F) (rat; subcutaneous, 0.2 mg/kg): 11 mL/day/kg

CN1CC[C@@H](c2c(O)cc(O)c3c(=O)cc(-c4ccc(C(F)(F)F)cc4Cl)oc23)[C@@H]1CO
patients with adverse event (refers to: Anemia; relapsed B-cell malignancies or AML; oral, 50 mg, grade 3-4, continuous dosing): 25%

O.O.O.O.O.O.[Cl-].[Cl-].[Co+2]
reticulocytes (Crl:CD(SD) rat male, blood; oral, 2.48 mg Co/kg/day, 90 days; reference: red blood cells): 10.8%

O=C1Nc2cc3[nH]nc(-c4ccncc4)c3cc2CN1Cc1ccccc1
patients with abdominal pain (CTCAE v4.03; advanced solid tumour patients; intravenous, 0.9 mg/kg, schedules 1/2): 100%

CN1C(=O)[C@@H](NC(=O)c2nnc(Cc3ccccc3)[nH]2)COc2cccnc21
participants with TEAE leading to death (phase I single ascending dose; human, male and female; oral, 800 mg, fasted): 0%

[O-][S+]1CCc2nc(N3CCC(c4ncc(Cl)cn4)CC3)nc(NC3(CO)CCC3)c21 (stereo not drawn)
adverse event incidence (refers to: Headache; healthy male humans; multiple doses, all groups): 31.3%

CCC[C@@](N)(CO)CCc1ccc(OCCCCCC(C)C)cc1
Tmax (dog; oral, 10 mg/kg): 6 h

COc1ncccc1-c1cnn2ccc(N3CCN(C(=O)OC(C)C)CC3)nc12
free drug concentration (rat, thermal hyperalgesia model, plasma; oral, 10 mg/kg, 180 min): 21 nM

CC(C)[C@H](C(=O)O[C@H](C#N)c1cccc(Oc2ccccc2)c1)c1ccc(Cl)cc1
enzyme contribution to clearance (refers to: CYP2B6; human, age 1 year): 0.7%

COc1cc2c(Oc3ccc4[nH]c(C)cc4c3F)ccnc2cc1OCC1(N)CC1
incidence of adverse event (refers to: grade 3 weight loss; paediatric high-risk refractory sarcoma; whole group): 0%

COc1cc2c(cc1OC)CN(CCc1ccc(NC(=O)c3cccc4c(=O)c5cccc(OC)c5[nH]c34)cc1)CC2
Tmax (CD-1 mouse, male, plasma; intraperitoneal, 1 mg/kg): 1 h

COc1ncnn2ccc(-c3cnc4nc(C)n(Cc5nnc([C@@H](C)F)o5)c4c3)c12
patients with nausea (human; oral, dose not given, grade 2): 42.9%

CCN(CC)[C@@H]1CCc2c(F)ccc(O)c2C1
IC50 (Plasmodium falciparum; 7G8): 0.794 µM

CC(C)C[C@@H]1NC(=O)CNC(=O)[C@H](CC(N)=O)NC(=O)[C@H](CCCNC(=N)N)NC(=O)[C@H]([C@@H](C)O)NC(=O)[C@@H]2CSSC[C@@H]3NC(=O)[C@H]([C@@H](C)O)NC(=O)CNC(=O)CNC(=O)[C@H](CCCCN)NC(=O)[C@@H]4CSSC[C@H](NC(=O)[C@H]([C@@H](C)O)NC(=O)[C@H](CSSC[C@H](NC(=O)[C@H](C(C)C)NC(=O)[C@@H]5CCCN5C1=O)C(=O)NCC(=O)N[C@@H](CCC(=O)O)C(=O)N[C@@H]([C@@H](C)O)C(=O)N4)NC(=O)CNC(=O)[C@@H]1CCCN1C(=O)[C@H]([C@@H](C)O)NC(=O)[C@H](CC(N)=O)NC3=O)C(=O)N[C@@H](CO)C(=O)N[C@@H](Cc1c[nH]c3ccccc13)C(=O)N1CCC[C@H]1C(=O)N[C@@H](C(C)C)C(=O)N2
remaining peptide (HPLC; ammonium bicarbonate 0.1 M; 180 µM, 7 days, pH 9.0, 37 °C, deamidation stability): 81.4 ± 1%

O=C(Nc1ccccc1)C1CCN(C(=O)Oc2cccnc2)CC1
TEAE incidence (refers to: disturbance in attention; healthy female humans; concentration not given, safety set, all doses pooled): 13%

COCC(=O)O[C@]1(CCN(C)CCCc2nc3ccccc3[nH]2)CCc2cc(F)ccc2[C@@H]1C(C)C
IC50 (Plasmodium falciparum; 3D7): 3.16 µM

O=S(=O)(Nc1ccccc1)c1ccc(NC(=S)Nc2ccccc2)cc1
relative organ weight (male mice, thymus; oral, 5 mg/kg daily 14 days; reference: body weight): 0.27%

Clc1ccc(-c2cc(Cl)c(Cl)c(Cl)c2)cc1Cl
log K(PDMS-water) (fresh water; 20 °C, S30-2 sampler, 30 µm): 5.99 ± 0.04

CO[C@H]1C[C@@H]2CC[C@@H](C)[C@@](O)(O2)C(=O)C(=O)N2CCCC[C@H]2C(=O)O[C@H]([C@H](C)C[C@@H]2CC[C@@H](OC(=O)NCCOCCOCCOCCOCCOCCOCCOCCOCCC(=O)N3CCc4cc(Cn5nc(-c6ccc7oc(N)nc7c6)c6c(N)ncnc65)ccc4C3)[C@H](OC)C2)C[C@@H](O)[C@H](C)/C=C(\C)[C@@H](O)[C@@H](OC)C(=O)[C@H](C)C[C@H](C)/C=C/C=C/C=C/1C
anaemia TEAE incidence (dose-escalation trial; patients with advanced solid tumours; intravenous, all doses weekly, grade ≥3): 16%

CCN1[C@@H](C(=O)NC23CCC(C(=O)O)(CC2)CC3)[C@H](c2cccc(Cl)c2F)[C@]2(C(=O)Nc3cc(Cl)ccc32)C12CCCCC2
grade ≥3 Leukopenia incidence (patients with advanced solid tumours; oral, 100 mg): 9.1%

FC(F)(F)c1ccccc1/C=N/N1CCN(Cc2ccccc2)CC1
IC50 (Gag-Pol polyprotein, integrase (gag-pol, Human immunodeficiency virus 1, UniProt P12497); strand transfer activity, inhibitor; wild-type integrase): > 100 µM

N#C[C@@]12C[C@@H]1[C@@H](n1cnc3c(NC4CCCC4)nc(I)nc31)[C@H](O)[C@@H]2O
tolerability (male C57BL/6J mice; intraperitoneal, 1 3 mg/kg): not toxic

Clc1cc(Cl)c(-c2cc(Cl)ccc2Cl)c(Cl)c1
log K(PDMS-water) (fresh water; 20 °C, SSP sampler, 100 µm): 5.98 ± 0.03

C=C(C)[C@@H]1CCC(C)=C[C@H]1c1c(O)cc(CCCCC)cc1O
subjects with AEs (human; 750 mg, trial 17074, with: rifampicin 600 mg): 44%

COc1ccc(F)cc1C(=O)NCc1ccc(-c2nn([C@@H](C)C(F)(F)F)c(N)c2C(N)=O)cc1
tmax (human, plasma; oral, 200 mg once daily): 3 h

O=C(Nc1ccccc1)C1CCN(C(=O)Oc2cccnc2)CC1
change in Anxious score (psychotropic effects VAS; healthy women; 100 mg; reference: pre-dose baseline, direction not given): -0.5

COc1ccc2nc3cc(Cl)ccc3c(Nc3cc(CN4CCCC4)c(O)c(CN4CCCC4)c3)c2n1
lymphocytes (mouse, blood; oral, 57 mg/kg, tolerability, mean): 75.1%

CC(=O)N[C@@H](CC(N)=O)C(=O)N[C@@H](CCCNC(=N)N)C(=O)N[C@@H](CC(C)C)C(=O)N[C@H]1CSSC[C@@H](C(=O)N[C@H](C(N)=O)[C@@H](C)O)NC(=O)[C@H](CCCNC(=N)N)NC(=O)[C@H](Cc2c[nH]cn2)NC(=O)[C@H](Cc2cccc3ccccc23)NC(=O)CNC(=O)[C@H](Cc2c[nH]c3ccccc23)NC(=O)[C@H](CC(=O)O)NC(=O)[C@H](CCC(N)=O)NC(=O)[C@H](Cc2cccc3ccccc23)NC(=O)[C@H](C(C)C)NC1=O
log retention factor (isocratic RP-HPLC, C18; 32% acetonitrile, phosphate pH 7.4, 1% TFA; 25 °C): 0.863

CC(C)C[C@@H]1NC(=O)CNC(=O)[C@H](CC(N)=O)NC(=O)[C@H](CCCNC(=N)N)NC(=O)[C@H]([C@@H](C)O)NC(=O)[C@@H]2CSSC[C@@H]3NC(=O)[C@H]([C@@H](C)O)NC(=O)CNC(=O)CNC(=O)[C@H](C(C)C)NC(=O)[C@@H]4CSSC[C@H](NC(=O)[C@H]([C@@H](C)O)NC(=O)[C@H](CSSC[C@H](NC(=O)[C@H](C(C)C)NC(=O)[C@@H]5CCCN5C1=O)C(=O)NCC(=O)N[C@@H](CCC(=O)O)C(=O)N[C@@H](CCCCN)C(=O)N4)NC(=O)CNC(=O)[C@@H]1CCCN1C(=O)[C@H]([C@@H](C)O)NC(=O)[C@H](CC(N)=O)NC3=O)C(=O)N[C@@H](CO)C(=O)N[C@@H](Cc1c[nH]c3ccccc13)C(=O)N1CCC[C@H]1C(=O)N[C@@H](C(C)C)C(=O)N2
remaining peptide (HPLC; ammonium bicarbonate; 180 µM, 14 days, pH 9.0, 25 °C, deamidation stability): 89.6 ± 1.4%
